Results from different studies.
A part holds a random share of what one study measured. Positions count from the first letter of the parent shown.

Series 1 — target: ATF5, bZIP domain (human); technique: DHFR protein complementation; matrix: yeast; reference: wild-type JUN-FOS pair; reading: higher = stronger binding; endpoint: binding fitness
Notes: single substitutions, most at no-binding floor
Parent: JUN, bZIP domain (human); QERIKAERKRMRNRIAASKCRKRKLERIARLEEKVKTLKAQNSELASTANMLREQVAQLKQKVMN; partner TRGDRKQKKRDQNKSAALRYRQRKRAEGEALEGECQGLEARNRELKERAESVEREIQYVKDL
K36N: -1.47 natural log
I28D: -1.51 natural log
T48V: -1.46 natural log
A40C: -1.29 natural log
T48E: -1.35 natural log
M51E: -1.29 natural log
I28L: -1.18 natural log
L31E: -1.48 natural log
Q58P: -1.49 natural log
K34C: -1.33 natural log
K36L: -1.33 natural log
K39T: -1.41 natural log
A46S: -1.35 natural log
E32M: -1.46 natural log

Series 2 — target: CCND1, cyclin fold, Cln2 fusion (human); technique: yeast growth competition, sequencing; matrix: yeast; notes: strong parent motif; reference: not given; reading: higher = stronger binding; endpoint: normalised enrichment score
Parent: PKN2 docking peptide (human); VSAVQKLDFSDTM; partner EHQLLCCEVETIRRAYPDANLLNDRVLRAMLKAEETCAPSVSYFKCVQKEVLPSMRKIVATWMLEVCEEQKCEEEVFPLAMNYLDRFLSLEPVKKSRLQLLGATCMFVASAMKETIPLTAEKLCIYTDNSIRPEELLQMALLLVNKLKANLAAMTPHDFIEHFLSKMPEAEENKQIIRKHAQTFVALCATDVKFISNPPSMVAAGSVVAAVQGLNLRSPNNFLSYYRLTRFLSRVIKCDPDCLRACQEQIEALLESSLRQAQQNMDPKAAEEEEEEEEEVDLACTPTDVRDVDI
V4G: -0.17
T12Y: 2.37
F9I: -0.0917
D8S: 0.976
M13W: 2.34
A3I: 1.07
F9C: 0.352
D11N: 1.86
S10K: 1.86
A3C: 1.48
A3P: 2.4
M13N: 2.2

Series 3 — technique: protein-binding microarray; form: double-stranded DNA, one strand shown; matrix: in vitro; tested at: 2540 nM top; notes: 60-bp whole probe; together with: salmon DNA 0.4 mg/ml; reference: random background probes; reading: higher = stronger binding; endpoint: fitted relative affinity; constant ends, left off below: GCCTAGCAC … GTCTTGATTCGCTTGACGCTGCTG
Target: Interferon regulatory factor 3, full length, phosphomimetic (IRF3, Homo sapiens, UniProt Q14653, residues 1-427, S386D/S396D/S398D/S402D/T404D/S405D)
Sequence of UniProt Q14653 (whole entry, unmodified, looked up): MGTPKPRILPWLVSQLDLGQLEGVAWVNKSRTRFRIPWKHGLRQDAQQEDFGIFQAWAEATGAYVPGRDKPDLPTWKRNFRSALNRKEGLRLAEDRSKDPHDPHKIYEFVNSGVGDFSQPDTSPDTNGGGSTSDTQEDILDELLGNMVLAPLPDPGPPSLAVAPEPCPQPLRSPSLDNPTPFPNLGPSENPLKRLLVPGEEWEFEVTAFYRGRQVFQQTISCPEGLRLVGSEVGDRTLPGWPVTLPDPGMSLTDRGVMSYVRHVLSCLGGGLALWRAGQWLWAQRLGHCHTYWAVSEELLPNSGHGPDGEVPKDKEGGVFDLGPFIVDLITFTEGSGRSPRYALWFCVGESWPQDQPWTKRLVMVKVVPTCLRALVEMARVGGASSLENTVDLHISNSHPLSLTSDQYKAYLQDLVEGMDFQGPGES
CTAGGTCTCCTACTGCTTTAGTGCTAG: 0.744 z-score
TTAGGATTCGACTTTCGGTTAGTGCTA: 1.89 z-score
ACCCTCATTCTACTATCGATGTGCTAG: 1.59 z-score
GACGGAGTGCTTTTCCTGACGTGCTAG: 0.152 z-score
GACGGACTGCTACTGCTCACGTGCTAG: -0.757 z-score
TTAGATCTCAGTATCGAGTAGTGCTAG: 0.313 z-score
GTCAGCGGTGGTGTTCGGTGGTGCTAG: -1.2 z-score
GACGATATCCTTCTCCTGACGTGCTAG: 3.77 z-score
GACGTACTGGACACTGGGGACGTGCTA: -0.483 z-score
GACGATTTCAGGATCGAGACGTGCTAG: 1.5 z-score
GACGGTAGCCTACTGCTGACGTGCTAG: -0.317 z-score
TTAGATTTCAGTTTCTATTAGTGCTAG: 4.64 z-score
TTAGGTTCCCTTTTCCTTTTGTGCTAG: 8.22 z-score
TTAGATCTCAGTCTCAATTAGTGCTAG: 0.56 z-score
TTAGATCTCAGTCTAGATTAGTGCTAG: 0.291 z-score
TTAGATTTCGGGTATCGCTTAGTGCTA: 1.3 z-score
TTAGGACTAGGGTTTCGGTTAGTGCTA: 2.61 z-score
CTGCAGGTAGCAGAGACTTGGTGCTAG: -0.903 z-score
TTAGAACTGAGTGTCGATTAGTGCTAG: 0.0396 z-score

Series 4 — technique: DHFR PCA, deep sequencing; matrix: yeast; together with: (+)-ABA 0.032 µM; reference: wild-type fitted maximum; reading: higher = stronger binding; endpoint: relative binding score
Target: ABI1, truncated, D143A, DHFR fusion (Arabidopsis thaliana)
Notes: methotrexate growth selection, single substitutions
Parent: PYL1, truncated, DHFR fusion (Arabidopsis thaliana); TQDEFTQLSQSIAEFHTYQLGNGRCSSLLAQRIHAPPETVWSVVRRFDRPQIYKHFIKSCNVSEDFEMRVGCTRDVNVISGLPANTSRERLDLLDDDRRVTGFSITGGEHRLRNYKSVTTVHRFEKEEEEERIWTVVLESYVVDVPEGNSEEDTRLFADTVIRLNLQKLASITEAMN
Q10D: 50%
Y141D: 4.16%
R32Q: 14.8%
E152A: 15.9%
R123Y: 5.27%
I33F: -2.07%
K168M: 5.98%
V70H: 5.23%
K116C: 0.317%
H16I: 0.461%
G21F: -2.16%

Repeated from above (series 1):
Q58P: -1.49 natural log
L31E: -1.48 natural log
I28L: -1.18 natural log
K34C: -1.33 natural log
T48E: -1.35 natural log
M51E: -1.29 natural log
A40C: -1.29 natural log
